Results from different studies.
Protocols differ between the studies behind these lines. ± gives the spread as reported.
SPT15 full length assumed: SPT15 full length assumed (Saccharomyces cerevisiae, UniProt P13393)
UniProt P13393, sequence (whole entry, looked up): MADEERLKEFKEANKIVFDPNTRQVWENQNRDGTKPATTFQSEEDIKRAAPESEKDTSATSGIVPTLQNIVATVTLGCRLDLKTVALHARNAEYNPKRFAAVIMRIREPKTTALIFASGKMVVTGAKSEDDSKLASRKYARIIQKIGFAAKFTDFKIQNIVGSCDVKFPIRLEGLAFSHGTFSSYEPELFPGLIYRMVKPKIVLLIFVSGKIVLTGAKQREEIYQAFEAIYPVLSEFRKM
PHO4: PHO4 1-312 (Saccharomyces cerevisiae, UniProt P07270)
UniProt P07270, sequence (whole entry, looked up): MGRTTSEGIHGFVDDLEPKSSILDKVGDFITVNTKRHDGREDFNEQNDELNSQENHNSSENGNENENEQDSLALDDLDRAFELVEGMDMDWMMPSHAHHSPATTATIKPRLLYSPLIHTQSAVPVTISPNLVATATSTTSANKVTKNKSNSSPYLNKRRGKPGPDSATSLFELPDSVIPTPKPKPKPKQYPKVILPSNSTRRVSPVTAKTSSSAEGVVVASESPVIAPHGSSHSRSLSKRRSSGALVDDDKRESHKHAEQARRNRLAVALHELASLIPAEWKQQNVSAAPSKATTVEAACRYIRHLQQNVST
U2AF2: U2AF2 148-342 (Homo sapiens, UniProt P26368)
UniProt P26368, sequence (whole entry, looked up): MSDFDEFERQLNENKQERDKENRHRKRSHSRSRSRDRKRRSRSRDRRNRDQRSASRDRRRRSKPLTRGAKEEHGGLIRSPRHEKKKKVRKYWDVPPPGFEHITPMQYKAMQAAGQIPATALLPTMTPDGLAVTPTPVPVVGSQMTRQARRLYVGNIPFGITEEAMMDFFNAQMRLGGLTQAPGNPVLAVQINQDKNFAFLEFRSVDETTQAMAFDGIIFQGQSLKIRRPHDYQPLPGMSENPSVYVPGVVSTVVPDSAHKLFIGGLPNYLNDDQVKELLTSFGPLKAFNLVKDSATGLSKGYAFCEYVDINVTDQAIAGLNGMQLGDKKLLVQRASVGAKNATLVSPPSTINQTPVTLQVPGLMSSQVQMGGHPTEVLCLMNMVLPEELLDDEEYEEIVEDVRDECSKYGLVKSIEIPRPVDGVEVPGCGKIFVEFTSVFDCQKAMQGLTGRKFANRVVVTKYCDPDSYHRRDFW
CBF1: CBF1 1-351 (Saccharomyces cerevisiae, UniProt P17106)
UniProt P17106, sequence (whole entry, looked up): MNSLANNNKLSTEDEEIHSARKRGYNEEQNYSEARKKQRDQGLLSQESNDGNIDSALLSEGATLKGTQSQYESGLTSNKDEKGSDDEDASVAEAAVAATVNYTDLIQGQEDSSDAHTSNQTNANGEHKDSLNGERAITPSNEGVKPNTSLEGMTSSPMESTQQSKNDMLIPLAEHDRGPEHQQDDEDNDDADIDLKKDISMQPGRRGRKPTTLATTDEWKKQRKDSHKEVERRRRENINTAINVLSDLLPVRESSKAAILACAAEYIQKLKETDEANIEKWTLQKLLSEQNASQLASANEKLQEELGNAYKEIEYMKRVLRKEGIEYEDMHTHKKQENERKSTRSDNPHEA
TGM2: TGM2 2-687 (Homo sapiens, UniProt P21980)
UniProt P21980, sequence (whole entry, looked up): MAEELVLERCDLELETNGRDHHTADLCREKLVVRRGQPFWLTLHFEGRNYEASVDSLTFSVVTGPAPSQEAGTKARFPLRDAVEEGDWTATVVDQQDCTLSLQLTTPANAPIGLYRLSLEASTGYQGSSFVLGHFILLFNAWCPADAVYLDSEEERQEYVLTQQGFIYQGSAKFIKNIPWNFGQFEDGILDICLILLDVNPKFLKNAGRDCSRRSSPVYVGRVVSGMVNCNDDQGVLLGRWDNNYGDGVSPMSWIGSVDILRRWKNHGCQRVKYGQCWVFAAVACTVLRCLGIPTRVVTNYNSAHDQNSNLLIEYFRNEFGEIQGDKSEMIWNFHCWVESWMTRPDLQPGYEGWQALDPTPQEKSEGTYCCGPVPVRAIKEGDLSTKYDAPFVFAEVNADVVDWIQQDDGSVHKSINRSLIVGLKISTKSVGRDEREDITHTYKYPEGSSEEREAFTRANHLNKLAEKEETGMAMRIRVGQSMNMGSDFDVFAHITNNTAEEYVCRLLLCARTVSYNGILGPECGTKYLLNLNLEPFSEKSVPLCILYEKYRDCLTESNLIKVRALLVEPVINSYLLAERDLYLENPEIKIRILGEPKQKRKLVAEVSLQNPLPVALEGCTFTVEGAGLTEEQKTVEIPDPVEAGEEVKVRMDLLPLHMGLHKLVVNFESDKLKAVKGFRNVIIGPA
CIN5 full length assumed: CIN5 full length assumed (Saccharomyces cerevisiae, UniProt P40917)
UniProt P40917, sequence (whole entry, looked up): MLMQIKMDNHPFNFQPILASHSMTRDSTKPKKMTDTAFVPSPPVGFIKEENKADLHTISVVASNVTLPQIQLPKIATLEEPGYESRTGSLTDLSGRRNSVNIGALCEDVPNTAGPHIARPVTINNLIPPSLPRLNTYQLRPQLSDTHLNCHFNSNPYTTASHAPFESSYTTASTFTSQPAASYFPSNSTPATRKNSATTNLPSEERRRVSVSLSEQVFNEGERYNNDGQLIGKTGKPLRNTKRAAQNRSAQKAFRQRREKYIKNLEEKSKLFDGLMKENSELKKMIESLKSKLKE
ulaR full length assumed: ulaR full length assumed (Escherichia coli, UniProt P0A9W0)
UniProt P0A9W0, sequence (whole entry, looked up): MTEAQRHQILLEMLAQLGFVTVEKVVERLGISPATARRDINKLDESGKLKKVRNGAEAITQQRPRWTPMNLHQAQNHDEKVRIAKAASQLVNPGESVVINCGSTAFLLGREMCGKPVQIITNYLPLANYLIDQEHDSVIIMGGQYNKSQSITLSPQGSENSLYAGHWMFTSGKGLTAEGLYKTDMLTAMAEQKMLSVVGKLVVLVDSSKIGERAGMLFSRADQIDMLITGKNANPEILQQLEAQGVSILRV
glnG full length assumed: glnG full length assumed (Escherichia coli, UniProt P0AFB8)
UniProt P0AFB8, sequence (whole entry, looked up): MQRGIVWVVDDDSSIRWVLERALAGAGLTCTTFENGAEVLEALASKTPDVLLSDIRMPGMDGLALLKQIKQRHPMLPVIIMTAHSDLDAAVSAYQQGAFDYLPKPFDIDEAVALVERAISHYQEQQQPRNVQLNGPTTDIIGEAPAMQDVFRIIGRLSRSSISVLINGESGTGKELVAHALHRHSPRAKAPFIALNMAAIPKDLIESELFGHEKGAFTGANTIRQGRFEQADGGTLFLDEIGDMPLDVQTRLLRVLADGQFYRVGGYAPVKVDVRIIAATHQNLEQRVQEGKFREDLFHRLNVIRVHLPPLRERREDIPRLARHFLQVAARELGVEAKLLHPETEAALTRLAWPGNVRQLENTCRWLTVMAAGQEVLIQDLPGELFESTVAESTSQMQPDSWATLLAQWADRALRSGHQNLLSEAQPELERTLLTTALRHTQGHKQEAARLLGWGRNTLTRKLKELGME
pdhR full length assumed: pdhR full length assumed (Escherichia coli, UniProt P0ACL9)
UniProt P0ACL9, sequence (whole entry, looked up): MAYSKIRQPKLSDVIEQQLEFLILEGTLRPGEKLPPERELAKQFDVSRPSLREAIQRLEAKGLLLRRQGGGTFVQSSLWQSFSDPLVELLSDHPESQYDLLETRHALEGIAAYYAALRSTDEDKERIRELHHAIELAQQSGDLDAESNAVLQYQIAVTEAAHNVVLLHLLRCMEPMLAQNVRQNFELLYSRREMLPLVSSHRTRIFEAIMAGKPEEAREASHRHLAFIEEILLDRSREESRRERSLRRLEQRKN
UniProt P09874, sequence (whole entry, unmodified, looked up): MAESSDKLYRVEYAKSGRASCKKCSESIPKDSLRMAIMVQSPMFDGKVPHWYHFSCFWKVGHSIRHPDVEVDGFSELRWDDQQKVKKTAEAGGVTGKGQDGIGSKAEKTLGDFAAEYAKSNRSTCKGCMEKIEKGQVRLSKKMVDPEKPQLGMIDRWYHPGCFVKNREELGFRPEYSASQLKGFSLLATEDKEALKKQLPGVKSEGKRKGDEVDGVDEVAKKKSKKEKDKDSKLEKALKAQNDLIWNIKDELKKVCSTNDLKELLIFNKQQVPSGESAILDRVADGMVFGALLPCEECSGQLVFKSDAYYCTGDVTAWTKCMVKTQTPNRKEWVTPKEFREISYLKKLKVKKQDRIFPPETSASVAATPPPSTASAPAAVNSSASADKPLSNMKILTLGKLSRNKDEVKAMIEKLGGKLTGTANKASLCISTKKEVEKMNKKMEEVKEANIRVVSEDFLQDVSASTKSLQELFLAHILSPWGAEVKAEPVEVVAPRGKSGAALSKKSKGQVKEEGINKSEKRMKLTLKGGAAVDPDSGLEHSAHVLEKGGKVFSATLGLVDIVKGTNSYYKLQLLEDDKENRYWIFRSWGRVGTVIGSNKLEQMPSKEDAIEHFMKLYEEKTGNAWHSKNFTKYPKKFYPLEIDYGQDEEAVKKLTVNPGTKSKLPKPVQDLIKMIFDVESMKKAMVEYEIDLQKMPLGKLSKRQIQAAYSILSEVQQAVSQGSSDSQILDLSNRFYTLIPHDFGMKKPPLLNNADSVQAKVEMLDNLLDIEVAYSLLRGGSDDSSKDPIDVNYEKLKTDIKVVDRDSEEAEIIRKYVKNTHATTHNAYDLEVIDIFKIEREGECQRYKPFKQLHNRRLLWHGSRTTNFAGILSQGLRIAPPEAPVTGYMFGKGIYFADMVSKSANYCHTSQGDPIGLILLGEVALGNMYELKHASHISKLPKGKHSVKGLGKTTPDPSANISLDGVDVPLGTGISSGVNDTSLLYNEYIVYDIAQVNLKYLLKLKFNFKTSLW
UniProt Q07955, sequence (whole entry, unmodified, looked up): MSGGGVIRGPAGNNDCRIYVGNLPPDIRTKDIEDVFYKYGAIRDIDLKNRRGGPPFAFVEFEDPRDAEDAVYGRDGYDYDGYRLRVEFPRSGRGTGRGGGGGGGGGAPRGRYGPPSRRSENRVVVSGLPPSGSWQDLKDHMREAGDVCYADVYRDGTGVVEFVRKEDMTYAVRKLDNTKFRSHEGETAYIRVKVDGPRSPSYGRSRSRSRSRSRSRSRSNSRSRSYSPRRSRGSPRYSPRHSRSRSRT
UniProt O15347, sequence (whole entry, looked up): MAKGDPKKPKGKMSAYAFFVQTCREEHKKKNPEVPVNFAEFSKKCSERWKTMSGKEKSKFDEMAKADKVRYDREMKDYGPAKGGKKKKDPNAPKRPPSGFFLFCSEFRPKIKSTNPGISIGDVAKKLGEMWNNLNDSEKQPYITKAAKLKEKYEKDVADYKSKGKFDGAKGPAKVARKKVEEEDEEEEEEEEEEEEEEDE

Oligonucleotide	target	test	test system	setting	scale	quantity	value
RNA 1 GCGGUGUAUAGCCUAAUCUUUACCGC / RNA 2 GCGGUAAAGAUUAGGCUAUACACCGC (dsRNA)	PARP1 216-1014 del1-215 (Homo sapiens, UniProt P09874)	fluorescence polarization	double-stranded RNA	Hill coefficient 0.85		Kd	0.126 ± 0.01 µM
AGCGUGCCGUGCAACAACAUUACAAUUUACAAUCCACCAUGG (ssRNA)	ECD 1-644 (Homo sapiens, UniProt O95905)	FP	RNA			Kd	4.5 ± 0.9 µM
TTGTGCTACGGTCTCTCCACCCCCTGCTGCTGCTGTCAAGTCAATCGGTCC (dsDNA; 5'-amino-C6 primer)	SPT15 full length assumed	array	double-stranded DNA, one strand shown	TBP alone		Kd	0.00181 ± 8e-05 µM
ATGGCGGGCTATGATCCTAT (dsDNA)	SUB1 full length assumed (Homo sapiens, UniProt P53999)	fluorescence anisotropy	double-stranded DNA, one strand shown			Kd	0.024 ± 0.017 µM
CAATACACTGTTATCAGACACACGTGTCCAGCTACTCGTTCGGTTATCCGGCGGTATGAC (dsDNA)	PHO4	MITOMI	double-stranded DNA, one strand shown	not purified		Kd	0.117 ± 0.003 µM
GTTCCTGAATATAAAAGGGGGGGGCGGGGTGGGGGTCAAGTCAATCGGTCC (dsDNA; 5'-amino-C6 primer)	SPT15 full length assumed	array	double-stranded DNA, one strand shown	TBP alone		Kd	0.00488 ± 0.00034 µM
ACUUUUUUU (ssRNA)	U2AF2	sequencing of bound RNA	RNA	motif only		Kd	1.14 µM
CAATACACTGTTATCAGCCACACGTGTCGAGCTACTCGTTCGGTTATCCGGCGGTATGAC (dsDNA)	PHO4	MITOMI	double-stranded DNA, one strand shown	not purified		Kd	0.154 ± 0.004 µM
CACUUCUUA (ssRNA)	U2AF2	sequencing of bound RNA	RNA	motif only		Kd	9.6 µM
CCAGGCAGATAAGGAACAAC (ssDNA)	GATA1 200-319 (Homo sapiens, UniProt P15976)	fluorescence anisotropy	single-stranded DNA			Kd	< 1.9 µM
CAATACACTGTTATCAGACACACGTGTCGACCTACTCGTTCGGTTATCCGGCGGTATGAC (dsDNA)	CBF1	MITOMI	double-stranded DNA, one strand shown	not purified		Kd	0.155 ± 0.007 µM
CTGAAGGGGGGGCTATAAAAGGGGATGGGGGCTCCTCAAGTCAATCGGTCC (dsDNA; 5'-amino-C6 primer)	SPT15 full length assumed	array	double-stranded DNA, one strand shown	TBP alone		Kd	0.0007 ± 3e-05 µM
CAATACACTGTTATCAGACACACGTGTCGGGCTACTCGTTCGGTTATCCGGCGGTATGAC (dsDNA)	PHO4	MITOMI	double-stranded DNA, one strand shown	not purified		Kd	0.138 ± 0.004 µM
GGGAGCAGGAGAGAGGUCAGAUGUUAGAUAAUUACAAGAGAUGUGGCAUCGGACCUAUGCGUGCUAGUGUGA (ssRNA; 2'-fluoro pyrimidines)	TGM2	SPR	RNA	added: MgCl2 5 mM	higher = more binding	relative binding	-8.2 RU
UUUUC (ssRNA)	RNA-directed RNA polymerase P2 1-659 (UniProt Q94M06)	fluorescence anisotropy	RNA	MgCl2 5 mM, NaCl 50 mM		Kd	0.2 ± 0.1 µM
CGCCAATTATGGAATTATGTAATTATTCAATTATTGAATTATTTAATTCACCAATCTCCGGCGGTATGAC (dsDNA)	CIN5 full length assumed	MITOMI	double-stranded DNA, one strand shown	not purified		Kd	0.46 ± 0.04 µM
AAGAGGAGTTAAATTTTATACAGTATAATCATAATATTGCAGCAAGGTGGTTATAATTGAA (dsDNA)	ulaR full length assumed	BLI	double-stranded DNA, one strand shown			Kd	0.0575 µM
CAATACACTGTTATCACACACACGTGTCGAGCTACTCGTTCGGTTATCCGGCGGTATGAC (dsDNA)	CBF1	MITOMI	double-stranded DNA, one strand shown	not purified		Kd	0.222 ± 0.017 µM
TCGGCTGGGAGGGGAGGTGTAGCCGGTCTTTGGGGTCAAGTCAATCGGTCC (dsDNA; 5'-amino-C6 primer)	SPT15 full length assumed	array	double-stranded DNA, one strand shown	TBP alone		Kd	0.00097 ± 7e-05 µM
RNA 1 CGGCAGGACGUACAUCCCUCCCGGCUCCCCUCCCGCUGGCCUGCCG / RNA 2 CGGCAGGCCAGCGGGAGGGGAGCCGGGAGGGAUGUACGUCCUGCCG (dsRNA)	MECP2 1-486 (Homo sapiens, UniProt P51608)	fluorescence polarization	double-stranded RNA	Hill coefficient 0.78		Kd	0.0114 ± 0.0008 µM
ACAACAGACACACGAAGGTATAAAAATAAAATACATCAAGTCAATCGGTCC (dsDNA; 5'-amino-C6 primer)	SPT15 full length assumed	array	double-stranded DNA, one strand shown	TBP alone		Kd	0.00509 ± 0.00045 µM
TTTGCGTGGGCTGTGGTGCTTT (ssDNA)	traI 309-858 Q317A (Escherichia coli, UniProt P14565)	fluorescence titration	single-stranded DNA			Kd	0.0109 ± 0.0017 µM
TTCAATGCTCTGTAGGTGTGCAACAAACCTGGCGTGCACCATGATGATCATTCCATCAGGT (dsDNA)	glnG full length assumed	BLI	double-stranded DNA, one strand shown			Kd	0.104 µM
CAATACACTGTTATCAGACACAGCTGTCGAGCTACTCGTTCGGTTATCCGGCGGTATGAC (dsDNA)	CBF1	MITOMI	double-stranded DNA, one strand shown	not purified		Kd	2.97 ± 0.825 µM
GGUUGUGUA (ssRNA)	U2AF2	sequencing of bound RNA	RNA	motif only		Kd	4.97 µM

Oligonucleotide	target	test	test system	setting	scale	quantity	value
GTAAAGTAGGAACGGTATTAATAGAAATGATACTAAAGTACGAAATAATAAACTGGAATTT (dsDNA)	pdhR full length assumed	BLI	double-stranded DNA, one strand shown			Kd	3.72 µM
CGCTAAAGTGGCAAAGTGGGAAAGTGGTAAAGTGTCAAAGTGTGAAAGTGTTAAACTCCGGCGGTATGAC (dsDNA)	CIN5 full length assumed	MITOMI	double-stranded DNA, one strand shown	not purified		Kd	24 ± 19 µM
CAATACACTGTTATCAGACACACGTGTCGTGCTACTCGTTCGGTTATCCGGCGGTATGAC (dsDNA)	CBF1	MITOMI	double-stranded DNA, one strand shown	not purified		Kd	0.22 ± 0.01 µM
AGCGTCACAGACATGAAAATGGTCAGACCACTTGACCTCGGCAAGTGGCTTAAGACAGGAA (dsDNA)	pdhR full length assumed	BLI	double-stranded DNA, one strand shown			Kd	0.00241 µM
UGUAUUUUU (ssRNA)	U2AF2	sequencing of bound RNA	RNA	motif only		Kd	7.7 µM
CGCTATTTACGTCACTACGTCAGCACGTCAGGACGTCAGTACGTCATCACGTCATCTCCGGCGGTATGAC (dsDNA)	CBF1 full length assumed (Saccharomyces cerevisiae, UniProt P17106)	MITOMI	double-stranded DNA, one strand shown	not purified		Kd	0.46 ± 0.02 µM
TCGTTCCCGCAGCTTGCCAGACGCGATTTCATAGTGGAGGCCTCCAGCAATCTTGAACAC (ssDNA)	ESCO1 1-200 (Homo sapiens, UniProt Q5FWF5)	EMSA	single-stranded DNA	apparent		Kd	0.021 µM
CAACAAAACTTGATTAACATCAATTTTGGTATGACCAATGCACCATTCATGTTATTCTCAA (dsDNA)	pdhR full length assumed	BLI	double-stranded DNA, one strand shown			Kd	0.0035 µM
CAATACACTGTTATCAGTCACACGTGTCGAGCTACTCGTTCGGTTATCCGGCGGTATGAC (dsDNA)	PHO4	MITOMI	double-stranded DNA, one strand shown	not purified		Kd	0.196 ± 0.005 µM
CAAATGTATGCACCATATCCATTCTAAACATAGTTTCAAGTCAATCGGTCC (dsDNA; 5'-amino-C6 primer)	SPT15 full length assumed	array	double-stranded DNA, one strand shown	TBP alone		Kd	0.0193 ± 0.00111 µM
UUGAGCUCC (ssRNA)	U2AF2	sequencing of bound RNA	RNA	motif only		Kd	0.54 µM
ATTTTTTAGTCCTATATATACTCGCTCTGCACTTGTCAAGTCAATCGGTCC (dsDNA; 5'-amino-C6 primer)	SPT15 full length assumed	array	double-stranded DNA, one strand shown	TBP alone		Kd	0.0352 ± 0.00305 µM
CGCCATGTAGACATGTATACATGTCCACATGTCGACATGTCTACATGTGCACATGCTCCGGCGGTATGAC (dsDNA)	PHO4 full length assumed (Saccharomyces cerevisiae, UniProt P07270)	MITOMI	double-stranded DNA, one strand shown	not purified		Kd	0.11 ± 0.01 µM
CTGAAGGGGGGGCTATAAAAGAAGGTGGGGGCTCCTCAAGTCAATCGGTCC (dsDNA; 5'-amino-C6 primer)	SUA7 full length assumed (Saccharomyces cerevisiae, UniProt P29055)	array	double-stranded DNA, one strand shown	TFIIB alone		Kd	0.00389 ± 0.00059 µM
GGTAACTTAGCGTCTCGTTGTGAGTAATTTTGACAAGGAATGGAATGCGATGCGCATAACG (dsDNA)	ulaR full length assumed	BLI	double-stranded DNA, one strand shown			Kd	0.0408 µM
CCTGCGGTATTGACACTTGAGGGGCGCGACTACTGACAGATGAGGGGCGCGATCCTTGACACTTGAGGGGCAGAGTGATGACAGATGAGGGGCGCACCTATTGACATTTGAGGGGCTGTCCACAGGCAG (dsDNA)	trfA 98-382 G254D/S267L/R156E (Escherichia coli, UniProt P07676)	SPR	double-stranded DNA, one strand shown			Kd	0.0218 µM
CUUCACCCA (ssRNA)	U2AF2	sequencing of bound RNA	RNA	motif only		Kd	1.21 µM
GGGAGCAGGAGAGAGGUCAGAUGGUCGAGACUUUGAGGGUUCUCCUGCUGUAACCUAUGCGUGCUAGUGUGA (ssRNA; 2'-fluoro pyrimidines)	TGM2	SPR	RNA	added: MgCl2 5 mM	higher = more binding	relative binding	59.8 RU
CGCAATTAGATAATTAGCCAATTAGCGAATTAGCTAATTAGGCAATTAGGGAATTCTCCGGCGGTATGAC (dsDNA)	CIN5 full length assumed	MITOMI	double-stranded DNA, one strand shown	not purified		Kd	0.97 ± 0.08 µM
GUUUCUCUU (ssRNA)	U2AF2	sequencing of bound RNA	RNA	motif only		Kd	12.8 µM
CATTCGCAACCTATAAGTAAATCCAATGGAACTCATCATAAATGAGACTTTTACCTTATGA (dsDNA)	glnG full length assumed	BLI	double-stranded DNA, one strand shown			Kd	11.7 µM
AUUAUUUGU (ssRNA)	U2AF2	sequencing of bound RNA	RNA	motif only		Kd	2.96 µM
ATGGCGGGCTATGATCCTAT (dsDNA; blunt, N2-nBu-dG at position 7)	HMGB3 full length assumed (Homo sapiens, UniProt O15347)	fluorescence anisotropy	double-stranded DNA, one strand shown			Kd	0.007 ± 0.001 µM
UUCAGAGGA (ssRNA)	SRSF1 1-248 S225A/S227A/S231A/S234A/S238A/S242A/S244A/S246A (Homo sapiens, UniProt Q07955)	fluorescence polarization	RNA			Kd	0.5 ± 0.04 µM

Repeated from above:
Oligonucleotide	target	test	test system	setting	scale	quantity	value
UUUUC (ssRNA)	RNA-directed RNA polymerase P2 1-659 (UniProt Q94M06)	fluorescence anisotropy	RNA	MgCl2 5 mM, NaCl 50 mM		Kd	0.2 ± 0.1 µM
CGCCAATTATGGAATTATGTAATTATTCAATTATTGAATTATTTAATTCACCAATCTCCGGCGGTATGAC (dsDNA)	CIN5 full length assumed	MITOMI	double-stranded DNA, one strand shown	not purified		Kd	0.46 ± 0.04 µM
AAGAGGAGTTAAATTTTATACAGTATAATCATAATATTGCAGCAAGGTGGTTATAATTGAA (dsDNA)	ulaR full length assumed	BLI	double-stranded DNA, one strand shown			Kd	0.0575 µM
CAATACACTGTTATCACACACACGTGTCGAGCTACTCGTTCGGTTATCCGGCGGTATGAC (dsDNA)	CBF1	MITOMI	double-stranded DNA, one strand shown	not purified		Kd	0.222 ± 0.017 µM
